# Measured values of several laboratories.
# Lines come from different studies, so protocols differ. ± marks the error that the study gave.
# Cell line: HepG2
SMILES,test,test system,conditions,endpoint,value
COC(=O)c1[nH]cc2c1[C@@]1(CN(C)c3ccc(Cl)cc31)c1[nH]c3ccccc3c1-2 (racemic),cytotoxicity,,,CC50,49 ± 1 µM
CCCCCCCCCCCCCNCC(=O)N(CC(=O)N(CCCCN)CC(=O)N(CCN)CC(=O)N(CC(N)=O)Cc1ccccc1)Cc1ccccc1,"cytotoxicity, MTT",,72 h,TD50,145 ± 96 µg/mL
CO[C@H]1C[C@@H]2CC[C@@H](C)[C@@](O)(O2)C(=O)C(=O)N2CCCC[C@H]2C(=O)O[C@H]([C@H](C)C[C@@H]2CC[C@@H](O)[C@H](OC)C2)CC(=O)[C@H](C)/C=C(\C)[C@@H](O)[C@@H](OC)C(=O)[C@H](C)C[C@H](C)/C=C/C=C/C=C/1C,cell viability,,"24 h, 37 °C",CC50,67.2 µM
CCCCCCCCCCCCCNCC(=O)N(CC(=O)N(CCCCN)CC(=O)N(CCN)CC(=O)N(CC(N)=O)CC(C)C)CC(C)C,"cytotoxicity, MTT",,72 h,TD50,167 ± 75 µg/mL
CC1OC(CC(=O)O)Cc2c(O)c3c(c(O)c21)C(=O)C=C(C1=CC(=O)c2c(O)c4c(c(O)c2C1=O)CC(CC(=O)O)OC4C)C3=O (stereo not shown),cell viability,,"24 h, 37 °C",CC50,96.1 µM
CCCCCCCCCCCCCNCC(=O)N(CC(=O)N(CCCCN)CC(=O)N(CCN)CC(=O)N(CC(N)=O)Cc1ccc(Br)cc1)Cc1ccc(Br)cc1,"cytotoxicity, MTT",,72 h,TD50,72 ± 20 µg/mL
COC(=O)c1[nH]c(C(=O)OC)c2c1-c1c([nH]c3ccc(Cl)cc13)[C@@]21CN(C)c2ccc(Cl)cc21 (racemic),cytotoxicity,,,CC50,49 ± 1.4 µM
O=C(Cc1c(-c2ccccc2)n[nH]c1-c1ccccc1)NO,,serum-free RPMI 1640,"30 µM, 24 h, 1% DMSO",viability,100%
CC(C)(C)c1ccc(C(=O)Nc2ccc3ccn(Cc4ccc(C(=O)O)cc4)c3c2)cc1,"qPCR, refers to: CYP7A1",,"10 µM, 12 h, FXR target gene",mRNA level,decreased
COC(=O)c1[nH]cc2c1[C@]1(CN(C)c3ccc(Cl)cc31)c1[nH]c3ccc(Cl)cc3c1-2 (racemic),cytotoxicity,,,CC50,37 ± 4.3 µM

# Repeated from above:
SMILES,test,test system,conditions,endpoint,value
CO[C@H]1C[C@@H]2CC[C@@H](C)[C@@](O)(O2)C(=O)C(=O)N2CCCC[C@H]2C(=O)O[C@H]([C@H](C)C[C@@H]2CC[C@@H](O)[C@H](OC)C2)CC(=O)[C@H](C)/C=C(\C)[C@@H](O)[C@@H](OC)C(=O)[C@H](C)C[C@H](C)/C=C/C=C/C=C/1C,cell viability,,"24 h, 37 °C",CC50,67.2 µM
